Experimental data collected from several papers.
Protocols differ between the studies behind these lines. Values joined by “and” are separate records of one study, mostly repeats; a detail may differ.
Read-out: DPPH scavenging

| Structure (SMILES) | test | conditions | IC50 |
| --- | --- | --- | --- |
| CC(=O)C1=C(C)NC(=O)NC1c1ccc(F)cc1 (stereo not drawn) |  |  | 49.4 µM |
| COc1cc(CN2CCN(c3ccc([N+](=O)[O-])cc3)CC2)c2cc3[n+](cc2c1O)CCc1cc2c(cc1-3)OCO2 | absorbance | 30 min | 15.1 µg/mL |
| C[C@@H]1O[C@@H](OC(=O)/C=C/c2ccc(O)cc2)[C@H](OC(=O)/C=C/c2ccc(O)cc2)[C@H](O)[C@H]1O |  | 30 min | 20.4 µg/mL |
| O=[N+]([O-])c1ccc2[nH]c(-c3ccco3)nc2c1 | absorbance |  | 1.59 µM |
| O=[N+]([O-])c1ccc(Cl)c(-c2nnc(S)o2)c1 |  |  | 54.1 µM |
| Cc1ccc(-c2nn(-c3ccccc3)cc2/C=C(\C#N)c2nc3ccccc3[nH]2)cc1 | absorbance |  | 98.4 µM |
| CC(=O)C1=C(C)NC(=O)NC1c1ccc(Cl)cc1 (stereo not drawn) |  |  | 40.7 µM |
| Cc1ccc(N(O)/N=N/c2ccc(S(=O)(=O)Nc3nccs3)cc2)cc1 |  |  | 859 µg/mL and 858 µg/mL |
| Cc1ccc(-c2nc3cc(F)ccc3[nH]2)o1 | absorbance |  | 1.36 µM |
| CCCCn1cc(C(=O)O)c(=O)c2cc(F)c(Nc3cc(OC)c(OC)c(OC)c3)c(N)c21 | absorbance | 30 min | 229 µM |
| CC(=O)C1=C(C)NC(=O)NC1c1ccccc1 (stereo not drawn) |  |  | 234 µM |
| CCCCn1cc(C(=O)O)c(=O)c2cc(F)c3c(nnn3-c3cccc(OC)c3)c21 | absorbance | 30 min | 1720 µM |
| O=c1c(O[C@@H]2O[C@H](CO)[C@@H](O)[C@H](O)[C@H]2O[C@@H]2O[C@H](CO)[C@@H](O)[C@H](O)[C@H]2O)c(-c2ccc(O)cc2)oc2cc(O)cc(O)c12 | absorbance |  | 195 µM |
| Sc1nnc(-c2cc(Cl)ccc2Cl)o1 |  |  | 83.6 µM |
| Cc1ccc(-c2nc3cc(C)c(C)cc3[nH]2)o1 | absorbance |  | 1.54 µM |
| CCCCSc1nnc(-c2ccc(N)cc2)o1 |  |  | 30.7 µM |
| O=C(O[C@@H]1Cc2c(O)cc(O)cc2O[C@@H]1c1cc(O)c(O)c(O)c1)c1cc(O)c(O)c(O)c1 | absorbance | 1 h | 7.1 µM |
| CC(=O)C1=C(C)NC(=O)NC1c1cccc(C)c1 (stereo not drawn) |  |  | 134 µM |
| N#C/C(=C\c1cn(-c2ccccc2)nc1-c1ccc(F)cc1)c1nc2ccccc2[nH]1 | absorbance |  | 284 µM |
| COc1cc(CN2CCN(c3cccc(Cl)c3)CC2)c2cc3[n+](cc2c1O)CCc1cc2c(cc1-3)OCO2 | absorbance | 30 min | 21.3 µg/mL |
| Nc1ccc(-c2nnc(S)o2)cc1 |  |  | 47 µM |
| O=C(O)[C@H]1O[C@@H](Oc2c(-c3ccc(O)c(O)c3)oc3cc(O)cc(O)c3c2=O)[C@H](O)[C@@H](O)[C@@H]1O |  |  | 47.2 µg/mL |
| N#C/C(=C\c1cn(-c2ccccc2)nc1-c1cccc(Cl)c1)c1nc2ccccc2[nH]1 | absorbance |  | 22 µM |
| CCCCn1cc(C(=O)O)c(=O)c2cc(F)c(Nc3ccccc3OC)c(N)c21 | absorbance | 30 min | 37.7 µM |
| COc1cc(CN2CCN(c3ccccc3[N+](=O)[O-])CC2)c2cc3[n+](cc2c1O)CCc1cc2c(cc1-3)OCO2 | absorbance | 30 min | 16.9 µg/mL |
| CCCCn1cc(C(=O)O)c(=O)c2cc(F)c(Nc3cc(OC)c(OC)c(OC)c3)c([N+](=O)[O-])c21 | absorbance | 30 min | 641 µM |
| C=C1CC(OC(=O)C(C)(O)CCl)C2C(=C)C(=O)OC2C2C1CC(O)C2(O)CCl (stereo not drawn) | absorbance |  | ~121 µg/mL |

Excerpt of the above:
| Structure (SMILES) | test | conditions | IC50 |
| --- | --- | --- | --- |
| COc1cc(CN2CCN(c3cccc(Cl)c3)CC2)c2cc3[n+](cc2c1O)CCc1cc2c(cc1-3)OCO2 | absorbance | 30 min | 21.3 µg/mL |
| Nc1ccc(-c2nnc(S)o2)cc1 |  |  | 47 µM |
| O=C(O)[C@H]1O[C@@H](Oc2c(-c3ccc(O)c(O)c3)oc3cc(O)cc(O)c3c2=O)[C@H](O)[C@@H](O)[C@@H]1O |  |  | 47.2 µg/mL |
